{"data": "Measured values collected from several papers", "note": "Each numbered part is a random draw from the data of one study; scales do not carry over between parts. Changes are numbered by the printed parent chain."}
{"data": "Block 1", "target": "RING finger protein unkempt homolog, zinc fingers 1-6, GST-SBP tag (UNK, Homo sapiens, UniProt Q9C0B0, residues 30-357)", "method": "RNA Bind-n-Seq", "molecule type": "RNA", "matrix": "in vitro", "concentration": "not given", "notes": "RNA with constant flanks, human-mouse chimeric sites, ends assumed", "baseline": "input RNA pool", "direction": "higher = stronger binding", "shared flanks, not repeated": "GGGAGUUCUACAGUCCGACGAUC … CAACAGAGGAUUGAGCAUCA", "Target sequence (chain)": "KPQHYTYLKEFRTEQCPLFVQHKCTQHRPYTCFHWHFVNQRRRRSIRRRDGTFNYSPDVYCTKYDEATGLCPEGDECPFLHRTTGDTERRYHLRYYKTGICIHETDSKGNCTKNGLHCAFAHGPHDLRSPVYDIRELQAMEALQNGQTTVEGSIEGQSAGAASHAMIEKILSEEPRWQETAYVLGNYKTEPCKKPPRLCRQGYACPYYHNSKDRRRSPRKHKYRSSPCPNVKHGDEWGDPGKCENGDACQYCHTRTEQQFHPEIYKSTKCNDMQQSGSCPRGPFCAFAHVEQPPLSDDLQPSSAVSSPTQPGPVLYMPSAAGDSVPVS"}
{"Oligonucleotide": "GCUCUUGGCAAUGUAAUCAGCGCCUUGGGGGACAAGAGCAAGAGAGCCACCCAUGUCCCUUACAGAGACUCUAAGCUGACAAGACUCUUGCAGGAUUCCCUCGGGGGUAACAGCCAAACC", "bound/input enrichment [ratio]": 0.0914}
{"Oligonucleotide": "UAACCACAUCAAGAUGGUUGGAAAGCUGAAGCAGAACUUACUAUUGGCGUGUCUGGUGAUUAGUUCUGUGACCGUGUUUUACCUGGGCCAGCAUGCCAUGGAGUGCCAUCACCGAAUAGA", "bound/input enrichment [ratio]": 0.19}
{"Oligonucleotide": "CCACCAGAUUCCAGCCAACAUGACCCUUGCUGCCUACAAAGAGAAGAUGAAGGAGCUCCCGCUGGUGUCCUUGUUCUGCUCCUGCUUCCUGGCCGAUCCCCUGAAUAAGUCGUCCUACAA", "bound/input enrichment [ratio]": 0.323}
{"Oligonucleotide": "GAACCUGCUCUCUCUGAUGAAGAUGAGGAAGACAAUGAUGAUGUUGAACCCAUUUCUGAAUUUCGAUUUGUGCCCAGUGAUAAGUCAGCGUUGGAGGCGAUGUUCACAGCAAUGUGUGAG", "bound/input enrichment [ratio]": 0.251}
{"Oligonucleotide": "GCCACCAAUUCCAGCCAACAUGACCCUUGCUGCCUACAAAGAGAAGAUGAAGGAGCUCCCACUAGUGUCCUUGUUCUGCUCCUGCUUCCUGGCCGAUCCCCUGAAUAAGUCGUCCUACAA", "bound/input enrichment [ratio]": 0.965}
{"Oligonucleotide": "GAAACAUUUAAAUUUAAAGAAGCUGUUGUUCUAGGAAGUACGGACUUUCUAGAAGAUGAUAUAGAGAAAAUUGUAGAAGAACUGGGGAAAGAAUACAAGGGCAACGCCUACCAUCUGAUG", "bound/input enrichment [ratio]": 1.1}
{"Oligonucleotide": "CUGUUUUACAGCCACACCAAUCUUGGCAUGUAUUAAGAAAAAAAAAAAUCCCUGUUGAAGUAGUUUUUCCACCUAUCAGCACUGAGUAAAUGCCAUAACUCCGCGGAAAUGGUCUAAAUA", "bound/input enrichment [ratio]": 0.217}
{"data": "Block 2", "target": "Centromere-binding protein 1, full length, His-tagged (CBF1, Saccharomyces cerevisiae, UniProt P17106, residues 1-351)", "method": "competition protein-binding microarray", "molecule type": "double-stranded DNA, one strand shown", "matrix": "in vitro", "concentration": "2 µM", "notes": "whole 60-bp probe, lowest competitor level", "with": "Pho4 competitor, 0.05 µM", "direction": "higher = stronger binding", "shared flanks, not repeated": "… GTCTTGATTCGCTTGACGCTGCTG", "UniProt P17106, sequence (whole entry, looked up)": "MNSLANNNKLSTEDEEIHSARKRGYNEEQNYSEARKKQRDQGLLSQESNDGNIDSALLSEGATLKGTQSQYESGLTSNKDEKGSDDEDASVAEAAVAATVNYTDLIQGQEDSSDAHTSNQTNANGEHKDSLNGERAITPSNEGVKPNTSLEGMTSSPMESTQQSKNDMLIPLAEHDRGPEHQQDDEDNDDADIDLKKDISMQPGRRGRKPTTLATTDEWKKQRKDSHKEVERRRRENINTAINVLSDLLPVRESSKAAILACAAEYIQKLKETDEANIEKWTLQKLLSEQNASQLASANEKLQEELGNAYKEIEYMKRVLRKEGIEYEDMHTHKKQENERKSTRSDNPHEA"}
{"Oligonucleotide": "CTAACGAAGGTTTGGTCTGTGGGTGACAAGCCAAGT", "fluorescence intensity [a.u.]": 63.6}
{"Oligonucleotide": "CTTCTGTAAATTTGTGATGTGGGTGGACGCGCCCCG", "fluorescence intensity [a.u.]": 68.4}
{"Oligonucleotide": "GGATACCTCCGCCGTCATATGATAATAATGTTCGTT", "fluorescence intensity [a.u.]": 135}
{"Oligonucleotide": "ATGAAGTGAAATCGGCACGTGGAGGTCAGAAGAGTC", "fluorescence intensity [a.u.]": 1050}
{"Oligonucleotide": "TGGCCTAAGATGAAGGTCGTGCTTTTTGTTCAATTG", "fluorescence intensity [a.u.]": 63.1}
{"Oligonucleotide": "TATTTATGTTTAATCCACGTTACACCACCAATTATA", "fluorescence intensity [a.u.]": 105}
{"data": "Block 3", "target": "CCND3, cyclin fold, Cln2 fusion (human)", "method": "yeast growth competition, sequencing", "matrix": "yeast", "notes": "weak parent motif", "baseline": "not given", "direction": "higher = stronger binding", "parent": "WEE1 docking peptide (human); HKTFRKLRLFDTP; partner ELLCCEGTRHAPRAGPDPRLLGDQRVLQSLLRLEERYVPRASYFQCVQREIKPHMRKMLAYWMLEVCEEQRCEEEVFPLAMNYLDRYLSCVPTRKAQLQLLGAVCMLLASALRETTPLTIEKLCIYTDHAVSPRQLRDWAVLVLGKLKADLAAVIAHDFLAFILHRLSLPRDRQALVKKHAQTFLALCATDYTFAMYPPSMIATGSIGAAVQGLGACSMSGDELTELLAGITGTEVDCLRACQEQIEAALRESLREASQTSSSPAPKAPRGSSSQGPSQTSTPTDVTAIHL"}
{"Variant": "HKTFRKLGLFDTP [R8G]", "normalised enrichment score": 0.0716}
{"Variant": "HLTFRKLRLFDTP [K2L]", "normalised enrichment score": 0.118}
{"Variant": "HKTFRKSRLFDTP [L7S]", "normalised enrichment score": 0.119}
{"Variant": "HKTFRTLRLFDTP [K6T]", "normalised enrichment score": 0.192}
{"Variant": "HKRFRKLRLFDTP [T3R]", "normalised enrichment score": 0.101}
{"Variant": "HGTFRKLRLFDTP [K2G]", "normalised enrichment score": 0.143}
{"data": "Block 4", "Substance": "PhoQ, residues 284 288 289 292 302 303 SIHMAM", "method": "Sort-seq", "refers to": "YFP reporter", "matrix": "E. coli", "notes": "PhoQ-PhoP variant library", "with": "10 µM Mg2+", "baseline": "high Mg2+ state", "direction": "higher = stronger signaling"}
{"target": "PhoP, residues 12 14 15 18 19 SHWTV (Escherichia coli, UniProt P23836)", "fold induction": 3.03}
{"target": "PhoP, residues 12 14 15 18 19 STHWV (Escherichia coli, UniProt P23836)", "fold induction": 0.794}
{"target": "PhoP, residues 12 14 15 18 19 QYCSL (Escherichia coli, UniProt P23836)", "fold induction": 13.9}
{"note": "For quick reference, copied from above (block 1):"}
{"Oligonucleotide": "CCACCAGAUUCCAGCCAACAUGACCCUUGCUGCCUACAAAGAGAAGAUGAAGGAGCUCCCGCUGGUGUCCUUGUUCUGCUCCUGCUUCCUGGCCGAUCCCCUGAAUAAGUCGUCCUACAA", "bound/input enrichment [ratio]": 0.323}
{"Oligonucleotide": "GAAACAUUUAAAUUUAAAGAAGCUGUUGUUCUAGGAAGUACGGACUUUCUAGAAGAUGAUAUAGAGAAAAUUGUAGAAGAACUGGGGAAAGAAUACAAGGGCAACGCCUACCAUCUGAUG", "bound/input enrichment [ratio]": 1.1}
{"Oligonucleotide": "GCUCUUGGCAAUGUAAUCAGCGCCUUGGGGGACAAGAGCAAGAGAGCCACCCAUGUCCCUUACAGAGACUCUAAGCUGACAAGACUCUUGCAGGAUUCCCUCGGGGGUAACAGCCAAACC", "bound/input enrichment [ratio]": 0.0914}
